{"data": "Measurements gathered from unrelated publications", "note": "Every numbered part comes from another study and shows a few of its results, in no order. Changes are numbered by the printed parent chain."}
{"data": "Series 1", "target": "TAR DNA-binding protein 43, full length, His tag (TARDBP, Homo sapiens, UniProt Q13148, residues 1-414)", "method": "RNA Bind-n-Seq", "form": "RNA", "medium": "in vitro", "tested at": "20 nM", "setting": "6-mer, flanks averaged, single round", "added": "150 mM LiCl", "baseline": "input library", "reading": "higher = stronger binding"}
{"Oligonucleotide": "CUGUUU", "6-mer enrichment (R)": 1.14}
{"Oligonucleotide": "UGUUGC", "6-mer enrichment (R)": 1.2}
{"Oligonucleotide": "GUAUUC", "6-mer enrichment (R)": 0.914}
{"Oligonucleotide": "AUUUCG", "6-mer enrichment (R)": 0.922}
{"Oligonucleotide": "AGACUA", "6-mer enrichment (R)": 0.818}
{"Oligonucleotide": "UUCUCA", "6-mer enrichment (R)": 0.863}
{"Oligonucleotide": "AGACCU", "6-mer enrichment (R)": 0.827}
{"Oligonucleotide": "CCCAAA", "6-mer enrichment (R)": 0.945}
{"Oligonucleotide": "CGGCGC", "6-mer enrichment (R)": 0.976}
{"data": "Series 2", "target": "Histone acetyltransferase KAT6A, winged helix 1, GST fusion (KAT6A, Homo sapiens, UniProt Q92794, residues 1-85)", "method": "protein binding microarray", "form": "double-stranded DNA, one strand shown", "medium": "in vitro", "tested at": "not given", "setting": "8-mer, flanks averaged, mean of 2 arrays, mostly near background", "baseline": "not given", "reading": "higher = stronger binding", "Target sequence (chain)": "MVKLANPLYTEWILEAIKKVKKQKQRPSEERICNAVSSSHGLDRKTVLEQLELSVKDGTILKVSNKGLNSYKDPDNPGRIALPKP"}
{"Oligonucleotide": "TCTGATAA", "E-score": -0.199}
{"Oligonucleotide": "ATCTTAGG", "E-score": -0.111}
{"Oligonucleotide": "ACACTAAG", "E-score": -0.146}
{"Oligonucleotide": "GATCGACC", "E-score": -0.0585}
{"Oligonucleotide": "TCAGTGAA", "E-score": -0.194}
{"Oligonucleotide": "AGTCACAT", "E-score": -0.16}
{"Oligonucleotide": "CGCAATGC", "E-score": 0.289}
{"Oligonucleotide": "TATGCGAA", "E-score": 0.067}
{"Oligonucleotide": "AGGGAAAT", "E-score": -0.242}
{"Oligonucleotide": "CCGGTTTC", "E-score": 0.242}
{"Oligonucleotide": "TCCCTTAA", "E-score": -0.0602}
{"Oligonucleotide": "GTTGTCCA", "E-score": -0.16}
{"Oligonucleotide": "GTATTACA", "E-score": 0.00504}
{"Oligonucleotide": "AGCATTTA", "E-score": -0.141}
{"Oligonucleotide": "ATTCAATA", "E-score": -0.267}
{"Oligonucleotide": "ACGCCACC", "E-score": -0.0108}
{"Oligonucleotide": "AATGCAGC", "E-score": -0.172}
{"Oligonucleotide": "ACCATTGA", "E-score": -0.103}
{"Oligonucleotide": "AGGAAGAG", "E-score": -0.0755}
{"Oligonucleotide": "GCCGGGTA", "E-score": 0.283}
{"Oligonucleotide": "TCCAAGGA", "E-score": -0.00502}
{"Oligonucleotide": "CCGTTACC", "E-score": 0.145}
{"Oligonucleotide": "ATTAAGCA", "E-score": -0.169}
{"Oligonucleotide": "CTGCTTCC", "E-score": -0.00115}
{"Oligonucleotide": "CTAAGCAG", "E-score": -0.0298}
{"data": "Series 3", "target": "ABI1, truncated, D143A, DHFR fusion (Arabidopsis thaliana)", "method": "DHFR PCA, deep sequencing", "medium": "yeast", "setting": "methotrexate growth selection, single substitutions", "added": "(+)-ABA 0.032 µM", "baseline": "wild-type fitted maximum", "reading": "higher = stronger binding", "parent": "PYL1, truncated, DHFR fusion (Arabidopsis thaliana); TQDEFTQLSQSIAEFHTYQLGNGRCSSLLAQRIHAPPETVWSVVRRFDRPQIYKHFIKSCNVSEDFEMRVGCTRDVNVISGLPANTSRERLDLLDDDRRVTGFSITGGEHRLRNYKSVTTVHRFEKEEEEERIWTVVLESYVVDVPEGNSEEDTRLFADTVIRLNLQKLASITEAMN"}
{"Variant": "S9G", "relative binding score": "19.2%"}
{"Variant": "R32N", "relative binding score": "-8.63%"}
{"Variant": "L112W", "relative binding score": "4.02%"}
{"Variant": "S140F", "relative binding score": "-3.23%"}
{"Variant": "T173H", "relative binding score": "2.22%"}
{"Variant": "P50F", "relative binding score": "-3.63%"}
{"Variant": "V145G", "relative binding score": "-3.52%"}
{"Variant": "F47V", "relative binding score": "-0.0906%"}
{"Variant": "G107T", "relative binding score": "2.96%"}
{"Variant": "A158C", "relative binding score": "66.8%"}
{"Variant": "L82A", "relative binding score": "1.25%"}
{"Variant": "E89Y", "relative binding score": "-1.65%"}
{"Variant": "K168F", "relative binding score": "-9.72%"}
{"Variant": "A175Y", "relative binding score": "-2.79%"}
{"Variant": "Q167A", "relative binding score": "25.5%"}
{"Variant": "V70R", "relative binding score": "1.54%"}
{"data": "Series 4", "target": "Interferon regulatory factor 5, full length, phosphomimetic (IRF5, Homo sapiens, UniProt Q13568-2, residues 1-514, K96S/S451D/S453D/S456D/S462D)", "method": "protein-binding microarray", "form": "double-stranded DNA, one strand shown", "medium": "in vitro", "tested at": "250 nM", "setting": "60-bp whole probe", "added": "salmon DNA 0.4 mg/ml", "baseline": "random background probes", "reading": "higher = stronger binding", "constant ends, left off below": "GCCTAGCAC … GTCTTGATTCGCTTGACGCTGCTG"}
{"Oligonucleotide": "GACGGAGTGGGACTGGGGACGTGCTAG", "log fluorescence [z-score]": -0.529}
{"Oligonucleotide": "CAGATTTGGCATATCTATTTGTGCTAG", "log fluorescence [z-score]": 0.395}
{"Oligonucleotide": "GACGGTTTCAGTTCCGGGACGTGCTAG", "log fluorescence [z-score]": 3.08}
{"Oligonucleotide": "TTAGATCTCAGTGTCGATTAGTGCTAG", "log fluorescence [z-score]": 0.572}
{"Oligonucleotide": "TCATCTTCCCTTTTAAGACTGTGCTAG", "log fluorescence [z-score]": 0.773}
{"Oligonucleotide": "GACGGACTGGGTCTGGGGACGTGCTAG", "log fluorescence [z-score]": -0.766}
{"Oligonucleotide": "GACGATATCGGGTTTGGAGACGTGCTA", "log fluorescence [z-score]": 1.37}
{"Oligonucleotide": "GACCGTATCCTTCTCCTGACGTGCTAG", "log fluorescence [z-score]": 0.239}
{"Oligonucleotide": "GACGGTTTCCTTATCCTGAGGTGCTAG", "log fluorescence [z-score]": 0.947}
{"Oligonucleotide": "TCACTTTTCCCCCTAGTACTGTGCTAG", "log fluorescence [z-score]": 1.18}
{"Oligonucleotide": "GACGGTCGCCTACTGCTGACGTGCTAG", "log fluorescence [z-score]": -0.44}
{"Oligonucleotide": "CACGATTTCAGTCTCGAGACGTGCTAG", "log fluorescence [z-score]": 1.34}
{"Oligonucleotide": "TAAGATATCGGGACTGGATTAGTGCTA", "log fluorescence [z-score]": 0.658}
{"Oligonucleotide": "TTAGAAATGAGACTGGATTAGTGCTAG", "log fluorescence [z-score]": -0.0509}
{"Oligonucleotide": "CTCACCGCTGGAGTTCTGCGGTGCTAG", "log fluorescence [z-score]": -0.653}
{"Oligonucleotide": "GACGGTCTCCATATCCTGACGTGCTAG", "log fluorescence [z-score]": -0.0267}
{"Oligonucleotide": "TTAGGTTCCCTTTTCCATTAGTGCTAG", "log fluorescence [z-score]": 0.578}
{"Oligonucleotide": "TTTTATTTATAAATTATCTTGTGCTAG", "log fluorescence [z-score]": 1.67}
{"Oligonucleotide": "TTAGATATCAGTACCGATTAGTGCTAG", "log fluorescence [z-score]": 1.3}
{"Oligonucleotide": "GCTTCTCCTTGGAATAGATCGTGCTAG", "log fluorescence [z-score]": -0.000721}
{"Oligonucleotide": "GATGGCAGTGGAAATTTTACGTGCTAG", "log fluorescence [z-score]": -0.175}
{"Oligonucleotide": "TTGGGTATCCTTTTCCTTTAGTGCTAG", "log fluorescence [z-score]": 0.231}
{"data": "Series 5", "target": "Prothrombin, mature alpha-thrombin (F2, Homo sapiens, UniProt P00734)", "method": "aptamer microarray, sandwich", "form": "DNA with 2'F-ANA", "medium": "in vitro", "tested at": "200 nM", "setting": "whole 15-mer aptamer, many near background", "added": "Cy3 exosite-II aptamer, 400 nM", "reading": "higher = stronger binding", "oligonucleotide": "GGTTGGTGTGGTTGG"}
{"Modification": "2'F-ANA at 3 4 5 8 9 10 12 13", "mean fluorescence intensity": "50.2 a.u."}
{"Modification": "2'F-ANA at 2 5 7 13 14 15", "mean fluorescence intensity": "49.1 a.u."}
{"Modification": "2'F-ANA at 1 3 4 7 11 14 15", "mean fluorescence intensity": "84.1 a.u."}
{"Modification": "2'F-ANA at 1 4 5 8 11 12 13 14", "mean fluorescence intensity": "50.8 a.u."}
{"Modification": "2'F-ANA at 1 3 6 7 8 11 13 14", "mean fluorescence intensity": "90.4 a.u."}
{"Modification": "2'F-ANA at 1 3 5 6 8 10 15", "mean fluorescence intensity": "44.3 a.u."}
{"Modification": "2'F-ANA at 2 3 4 7 8 9 10 11 14 15", "mean fluorescence intensity": "168 a.u."}
{"Modification": "2'F-ANA at 5 6 7 8 9 13 14 15", "mean fluorescence intensity": "45.6 a.u."}
{"Modification": "2'F-ANA at 1 2 3 4 5 6 10 11 13 15", "mean fluorescence intensity": "52.9 a.u."}
{"Modification": "2'F-ANA at 3 6 7 9 11 12 14", "mean fluorescence intensity": "510 a.u."}
{"Modification": "2'F-ANA at 1 3 4 5 6 11 12 14 15", "mean fluorescence intensity": "48 a.u."}
{"Modification": "2'F-ANA at 3 5 6 9 10 13 14", "mean fluorescence intensity": "50.2 a.u."}
{"Modification": "2'F-ANA at 1 3 5 7 8 9 10 11 13 15", "mean fluorescence intensity": "48.8 a.u."}
{"Modification": "2'F-ANA at 2 4 5 6 7 8 10 14 15", "mean fluorescence intensity": "50 a.u."}
{"Modification": "2'F-ANA at 1 3 5 6 7 8 12 13", "mean fluorescence intensity": "108 a.u."}
{"Modification": "2'F-ANA at 5 7 8", "mean fluorescence intensity": "90.6 a.u."}
{"Modification": "2'F-ANA at 3 5 8 11 12 13 14 15", "mean fluorescence intensity": "62.8 a.u."}
{"Modification": "2'F-ANA at 1 9 10 12 14 15", "mean fluorescence intensity": "47.3 a.u."}
{"note": "Excerpt of the above (series 2):"}
{"Oligonucleotide": "TCCCTTAA", "E-score": -0.0602}
{"Oligonucleotide": "ACCATTGA", "E-score": -0.103}
{"Oligonucleotide": "CTGCTTCC", "E-score": -0.00115}
{"Oligonucleotide": "ACGCCACC", "E-score": -0.0108}
{"Oligonucleotide": "ACACTAAG", "E-score": -0.146}
{"Oligonucleotide": "ATTAAGCA", "E-score": -0.169}
{"Oligonucleotide": "TCTGATAA", "E-score": -0.199}
{"Oligonucleotide": "ATCTTAGG", "E-score": -0.111}
{"Oligonucleotide": "CCGGTTTC", "E-score": 0.242}
{"Oligonucleotide": "GATCGACC", "E-score": -0.0585}
{"Oligonucleotide": "CTAAGCAG", "E-score": -0.0298}
{"Oligonucleotide": "TCAGTGAA", "E-score": -0.194}
{"Oligonucleotide": "AGGAAGAG", "E-score": -0.0755}
{"Oligonucleotide": "AGTCACAT", "E-score": -0.16}
